Measurements pooled from the literature.
Each numbered part is a random draw from the data of one study; scales do not carry over between parts.

Series 1 — technique: protein-binding microarray; form: double-stranded DNA, one strand shown; medium: in vitro; tested at: 940 nM top; setting: 60-bp whole probe; added: salmon DNA 0.4 mg/ml; reference: random background probes; reading: higher = stronger binding; shared flanks, not repeated: GCCTAGCAC … GTCTTGATTCGCTTGACGCTGCTG
Target: Interferon regulatory factor 5, full length, phosphomimetic (IRF5, Homo sapiens, UniProt Q13568-2, residues 1-514, S451D/S453D/S456D/S462D)
| Oligonucleotide | fitted relative affinity [z-score] |
| --- | --- |
| TTCGGACTGGGGACTGGGTTAGTGCTA | -0.181 |
| GACGATTTCAGTTCCAAGACGTGCTAG | 0.776 |
| TTAGGACTGCTAATCCTTTAGTGCTAG | -0.55 |
| TTAGATCTCAGTCTAGATTAGTGCTAG | 0.0617 |
| GACGGTATCGGTCTGGGGACGTGCTAG | 7.97 |

Series 2 — technique: protein binding microarray; form: double-stranded DNA, one strand shown; medium: in vitro; tested at: not given; reference: not given; reading: higher = stronger binding
Target: Histone acetyltransferase KAT6A, winged helix 1, GST fusion (KAT6A, Homo sapiens, UniProt Q92794, residues 1-85)
Setting: 8-mer, flanks averaged, mean of 2 arrays, mostly near background
Residues (chain): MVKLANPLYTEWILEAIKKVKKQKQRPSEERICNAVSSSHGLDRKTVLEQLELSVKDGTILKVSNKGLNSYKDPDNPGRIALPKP
| Oligonucleotide | E-score |
| --- | --- |
| TCCTGAGA | -0.0941 |
| TCCTGACA | -0.28 |
| ATTTAGGC | -0.0713 |
| CCATGGTC | -0.0208 |

Series 3 — technique: RNA Bind-n-Seq; form: RNA; medium: in vitro; tested at: 365 nM; reference: no-protein control; reading: higher = stronger binding
Target: RNA binding protein fox-1 homolog 2, RRM domain, GST-SBP tag (RBFOX2, Homo sapiens, UniProt O43251-10, residues 100-194)
Setting: natural RNA segment, single round, ends assumed
Residues (chain): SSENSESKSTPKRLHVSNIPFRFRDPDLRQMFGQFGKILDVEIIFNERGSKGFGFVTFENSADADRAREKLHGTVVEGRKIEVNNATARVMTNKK
| Oligonucleotide | RBNS enrichment (R) |
| --- | --- |
| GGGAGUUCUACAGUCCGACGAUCCUAUGUUCUUGACUUUGUCUCUCCUUUCCGAGUCAAUGGUGGGUUACACUGAUCUUGUUCCACUGAUUACUCUCUCUGACGAGUCCAUCACCUGCAACUUAAAUGAACAAUGGAAUUCUCGGGUGCCAA | 0.478 |
| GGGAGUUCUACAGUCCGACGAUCCUAAUUUUAUAAGGCAUCUUAUUUUAUCUUUCAGAGAGCUCUACUUCUGGCUCAGGGAAUCUGAUAGAGCCCAUGGAAGAGAGUCCUCAUCAGCAAACCAGGCCAGCAUUUGGAAUUCUCGGGUGCCAA | 1.3 |
| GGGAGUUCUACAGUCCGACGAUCUGUUUUUAAGGCAUUUUAAAGCUGUAGCAGGCGUAUGCUUCAUUUUCUUCCAAAGAGGCAAAAGCAGCUAGACUCGCUUACAGCACAUGCUUCGCUCCAUGGUAUGGGUGUGGAAUUCUCGGGUGCCAA | 0.347 |
| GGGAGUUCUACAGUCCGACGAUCCCCUGUUUCAUGCCAGGGCCACCUCUGGUGAUCUAACUCUAUCCAAAUAGCGUUCUGCUUGGGAUGGUGGCUGGUUCUAUGCCUACGCUCUCCGGUGACACCUAUAAGCCUGGAAUUCUCGGGUGCCAA | 0.332 |
| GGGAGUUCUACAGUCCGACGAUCAGUCUUAAAAAAUUCUAUCAGAUGUGUCAUGAGACUGUUUCAGACUCAUGUCUGCUUAAAAUUCACGCUGACCUUGCAGAGCACCAGAGCAUGGGGCUGGCAUGCAGGAAUGGAAUUCUCGGGUGCCAA | 11.1 |
| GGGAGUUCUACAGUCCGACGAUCAGAUUGUCGGGACUAUGACCUUUUUCUCCAGUAUGCUACCUGAUUUGUUUGGCUGGCCACUAGGUGGCAGCAUUGGUUCUACUUCUCUGCUUUUUAAGAGAAAUUUCAGGUGGAAUUCUCGGGUGCCAA | 2.15 |

Other studies, line by line
| Substance | target | assay | test system | setting | scale | measurement | value |
| --- | --- | --- | --- | --- | --- | --- | --- |
| PhoQ, residues 284 288 289 292 302 303 ALASRC | PhoP, residues 12 14 15 18 19 LHTVM (Escherichia coli, UniProt P23836) | Sort-seq, measured: YFP reporter | E. coli | PhoQ-PhoP variant library, added: 10 µM Mg2+ | reference: high Mg2+ state, higher = stronger signaling | fold induction | 10.8 |

Some of these lines once more (series 1):
| Oligonucleotide | fitted relative affinity [z-score] |
| --- | --- |
| TTCGGACTGGGGACTGGGTTAGTGCTA | -0.181 |
| GACGATTTCAGTTCCAAGACGTGCTAG | 0.776 |
